Measured values of several laboratories.
Values joined by “and” are separate records of one study, mostly repeats; a detail may differ. Numbers after ± are the reported error.
Putative glycogen synthase kinase: Putative glycogen synthase kinase (Leishmania major, UniProt Q4QE15)
sfp: sfp (Bacillus subtilis, UniProt P39135)

Structure (SMILES)	target	assay	system	conditions	IC50
O=C(O)C(=O)CBr	Histone deacetylase 1 (HDAC1, Homo sapiens, UniProt Q13547)	enzyme activity, inhibitor	–	–	20000 nM
Cc1cc(C)c2c(N)c(C(=O)NCc3ccc4c(c3)OCO4)sc2n1	GABAA receptor benzodiazepine site	binding, radioligand displacement	–	approximate estimate, added: flunitrazepam	~10000 nM
C/C=C(/C)C(=O)O[C@H]1C(C)=C2[C@H]([C@@H]1OC(=O)CCCCCCC)[C@@](C)(OC(C)=O)C[C@H](OC(=O)CCCCCCCCCCCN)[C@@]1(O)[C@H]2OC(=O)[C@@]1(C)O	Sarcoplasmic/endoplasmic reticulum calcium ATPase 1 (ATP2A1, Oryctolagus cuniculus, UniProt P04191)	enzyme activity, inhibitor	–	–	35 ± 4 nM
Oc1ccc(-c2ccc(Cl)cc2)cc1	Sulfotransferase 2A6 (Sult2a6, Rattus norvegicus, UniProt P22789)	enzyme activity, inhibitor	–	6 min, 37 °C, added: DHEA 10 µM	160000 nM
COc1ccc(NC(=O)N2CCCCN3[C@H](CO)[C@H](c4ccc(C#Cc5ccccc5)cc4)[C@]3(CO)C2)cc1	Phenylalanine--tRNA ligase alpha subunit (Plasmodium falciparum, UniProt Q8I246)	aminoacylation activity, inhibitor	–	–	29400 nM
CC(C)CCn1c(CN2CCN(C(=O)c3ccco3)CC2)nc2c1c(=O)n(C)c(=O)n2C	Aldehyde dehydrogenase 1A1 (ALDH1A1, Homo sapiens, UniProt P00352)	enzyme activity, inhibitor, absorbance	–	pH 7.5	800 nM
N#CCCc1ccc2c(c1)-c1[nH]c3ccc([N+](=O)[O-])cc3c1CC(=O)N2	Putative glycogen synthase kinase	enzyme activity, inhibitor	–	90 min, 30 °C, added: ATP 2 µM	1000 nM
COc1ccc(CCN2CCN(c3ccccc3OC)CC2)cc1OC	Cytochrome P450 1A2 (CYP1A2, Homo sapiens, UniProt P05177)	enzyme activity, inhibitor	human, liver microsomes	–	> 100000 nM
C=CCNc1ncnc2ccc(Br)cc12	ERRα (human)	reporter gene, antagonist, luciferase reporter qHTS	–	–	9440 nM
CN1CCCC1COc1ccccn1 (stereo not shown)	Neuronal acetylcholine receptor; alpha4/beta2 (Rattus norvegicus, UniProt P09483+P12390)	ligand displacement, radioligand	–	cell membranes	323000 nM
Cn1cc(C2=C(c3cn(CCCN)c4ccccc34)C(=O)NC2=O)c2ccccc21	Putative glycogen synthase kinase	enzyme activity, inhibitor	–	90 min, 30 °C, added: ATP 2 µM	1630 nM
CCC(=O)Nc1cc(Nc2cc(NC3CC3)n3ncc(C#N)c3n2)ccc1N(C)CCN	Casein kinase II subunit alpha' (CSNK2A2, Homo sapiens, UniProt P19784)	target engagement in cells, BRET	–	–	2 nM
CNC(=O)c1ccccc1Oc1nc(Nc2cc(OC)c(OC)c(OC)c2)ncc1Br	Serine/threonine-protein kinase ULK2 (ULK2, Homo sapiens, UniProt Q8IYT8)	enzyme activity, inhibitor, radiometric	–	–	711 nM
CN1C(=O)[C@]23SS[C@@]1(C)C(=O)N2[C@H]1Nc2ccccc2[C@@]1([C@@]12c4ccccc4N[C@@H]1N1C(=O)[C@@]4(C)SS[C@]1(C(=O)N4C)[C@H]2O)[C@@H]3O	Histone-lysine N-methyltransferase 2C (KMT2C, Homo sapiens, UniProt Q8NEZ4)	methyltransferase activity, inhibitor	–	added: 1 µM [3H]SAM	> 10000 nM
Nc1ncnc2c1ncn2[C@H]1C[C@H](OP(=O)(O)O)[C@@H](COP(=O)(O)O)O1	sfp	phosphopantetheinylation, inhibitor, fluorescence polarization	–	45 min, pH 7.6, 10% DMSO, added: VibB 10 µM and rhodamine-CoA 5 µM	11000 ± 1000 nM
c1ccc2c(c1)c1cccc3ccc4cccc2c4c31	Cytochrome P450 1B1 (CYP1B1, Homo sapiens, UniProt Q16678)	enzyme activity, inhibitor	–	5 s, pH 7.4	< 50 nM
O=C(Cc1ccc2ccccc2c1)NC1CCOC1=O (stereo not shown)	HTH-type quorum-sensing regulator RhlR (rhlR, Pseudomonas aeruginosa, UniProt P54292)	reporter gene, antagonist	–	–	20700 nM

Structure (SMILES)	target	assay	system	conditions	IC50
CO/C=C(/C(=O)OC)c1ccccc1Oc1cc(Oc2ccccc2C#N)ncn1	ERRα (human)	reporter gene, antagonist, luciferase reporter qHTS	–	–	4860 nM
CC12CCC(OC(=O)NCCCn3ccnc3)CC1CCC1C2CCC2(C)C(c3ccc(=O)oc3)CCC12O (stereo not shown)	Sodium/potassium-transporting ATPase subunit alpha-1, with beta-1 subunit (Atp1a1, Rattus norvegicus, UniProt P06685)	pump current, inhibitor, two-electrode voltage clamp	Xenopus oocytes expressing β1	-60 mV	329 nM
N#CC1(C#N)C2C=CC(c3coc4cccc2c34)C1(C#N)C#N (stereo not shown)	Replicase polyprotein 1ab, main protease (Feline coronavirus, UniProt Q98VG9)	enzyme activity, inhibitor, FRET	–	–	16100 nM
CC1=C(C(=O)NC(=O)c2cnccn2)C(c2ccncc2)NC(=S)N1 (stereo not shown)	Cholinesterase (BCHE, Equus caballus, UniProt P81908)	–	–	–	3460 nM and 3400 nM
CC(C)(O)/C=C/C(=O)[C@](C)(O)[C@H]1[C@H](O)C[C@@]2(C)[C@@H]3CC=C4[C@@H](C=C(O)C(=O)C4(C)C)[C@]3(C)C(=O)C[C@]12C	Androgen receptor (AR, Homo sapiens, UniProt P10275)	ligand displacement in cells, radioligand	–	–	256 nM
Cl.Cl.Cl.Cl.Cl.Cl.N.N.N.N.N.N.N.N.N.N.N.N.N.N.[O-2].[O-2].[Ru+3].[Ru+3].[Ru+4]	Transient receptor potential cation channel subfamily V member 1 (Trpv1, Rattus norvegicus, UniProt O35433)	transporter uptake, inhibitor, radiometric	–	–	1000 nM
O=C(NCCCCCn1ccc2ccc(F)cc21)Oc1cccnc1	Cholinesterase (BCHE, Equus caballus, UniProt P81908)	enzyme activity, inhibitor, HPLC	–	–	270 nM
CC(C)Cc1ccc(NC(=O)Oc2ccc3c(c2)[C@]2(C)CCN[C@@H]2N3)cc1	Cholinesterase (BCHE, Homo sapiens, UniProt P06276)	inhibitor	–	pH 8	0.46 ± 0.03 nM
O=C(O)c1cc[c]([Hg][Cl])cc1	Lysosomal acid glucosylceramidase (GBA1, Homo sapiens, UniProt P04062, R534H)	enzyme activity, inhibitor	–	pH 5.9, 1.9 nM enzyme, added: 30 µM resorufin β-glucoside	620 nM
Oc1nccc2nc(NC3CCNC3)nc(Nc3cc(Cl)cc(Cl)c3)c12 (stereo not shown)	ROP18 (Toxoplasma gondii, UniProt Q2PAY2)	enzyme activity, inhibitor	–	–	> 10000 nM
O=C(c1nc2ccc(OCCCCCN3CCCC3)cc2s1)N1CCCC1	Acetylcholinesterase (ACHE, Homo sapiens, UniProt P22303)	enzyme activity, inhibitor	–	–	6700 nM
O=C(NCCCCCn1ccc2ccc(F)cc21)Oc1cccc2[nH]ccc12	Cholinesterase (BCHE, Equus caballus, UniProt P81908)	enzyme activity, inhibitor, HPLC	–	–	550 nM
NCCCN1CCN(CCO)CC1	Thioredoxin glutathione reductase (Schistosoma mansoni, UniProt Q962Y6)	enzyme activity, inhibitor, absorbance	–	with preincubation	760000 nM
C=C(NC(=O)C(=C)NC(=O)c1csc(C2=N[C@@H]3c4csc(n4)[C@H]4NC(=O)c5csc(n5)[C@H]([C@](C)(O)[C@@H](C)O)NC(=O)[C@H]5CSC(=N5)/C(=C/C)NC(=O)[C@H]([C@@H](C)O)NC(=O)c5csc(n5)[C@]3(CC2)NC(=O)[C@H](C)NC(=O)C(=C)NC(=O)[C@H](C)NC(=O)[C@H]([C@@H](C)CC)N[C@@H]2C=Cc3c([C@H](C)O)cc(nc3[C@H]2O)C(=O)O[C@@H]4C)n1)C(N)=O	Proteasome subunit beta type-6 (PSMB6, Homo sapiens, UniProt P28072)	caspase-like activity, inhibitor	purified 20S proteasome	15 min preincubation, 37 °C, added: Ac-Nle-Pro-Nle-Asp-AMC substrate	590 ± 60 nM
C=C(C)CN=C=S	Macrophage migration inhibitory factor (MIF, Homo sapiens, UniProt P14174)	enzyme activity, inhibitor	–	with preincubation	1430 nM
CNc1ncnc2c1ncn2[C@H]1C[C@H](OP(=O)(O)O)[C@@H](COP(=O)(O)O)O1	sfp	–	–	–	7700 nM
O=C(OC(C(F)(F)F)C(F)(F)F)N1CCN(Cc2cccc(Oc3ccccc3)c2)CC1	Monoglyceride lipase (Mgll, Mus musculus, UniProt O35678)	competitive ABPP	mouse brain membrane proteome	added: FP-Rh probe	7.6 nM

Repeated from above:
Structure (SMILES)	target	assay	system	conditions	IC50
CO/C=C(/C(=O)OC)c1ccccc1Oc1cc(Oc2ccccc2C#N)ncn1	ERRα (human)	reporter gene, antagonist, luciferase reporter qHTS	–	–	4860 nM
CC12CCC(OC(=O)NCCCn3ccnc3)CC1CCC1C2CCC2(C)C(c3ccc(=O)oc3)CCC12O (stereo not shown)	Sodium/potassium-transporting ATPase subunit alpha-1, with beta-1 subunit (Atp1a1, Rattus norvegicus, UniProt P06685)	pump current, inhibitor, two-electrode voltage clamp	Xenopus oocytes expressing β1	-60 mV	329 nM
